Measurements gathered from unrelated publications.
Numbered parts are unrelated; each lists some results of a single study. Substitutions count along the parent as printed.

Set 1 — method: universal PBM; form: double-stranded DNA, one strand shown; medium: in vitro; tested at: not given; reading: higher = stronger binding
Target: Sal-like protein 4, full length isoform B (SALL4, Homo sapiens, UniProt Q9UJQ4-2, residues 1-616)
Setting: 8-mer, flanks averaged, mean of replicates
| Sequence | E-score |
| --- | --- |
| ACACACGT | 0.13 |
| ATTCAATC | 0.216 |
| CAAGCTTG | -0.00072 |
| GCAAGCTA | -0.00878 |
| TGGGTTAA | 0.00991 |
| AATCCGTG | -0.151 |
| ACTTCGCT | -0.0556 |
| CGACAGAC | -0.192 |
| TACAACAA | 0.278 |
| ACAGCGGA | -0.115 |
| ACGGTGCA | -0.0336 |
| CGGAGTTA | -0.144 |
| AGCATGGC | -0.182 |
| AAGGCGAA | -0.107 |
| ACTCCCGG | -0.213 |
| TATTTCCA | 0.31 |

Set 2 — target: CCND1, cyclin fold, Cln2 fusion (human); method: yeast growth competition, sequencing; medium: yeast; setting: strong parent motif; baseline: not given; reading: higher = stronger binding
Starting sequence: RBL2 docking peptide (human); STTRRRLFVENDS
| Change | normalised enrichment score |
| --- | --- |
| F8A | -0.214 |
| S13H | 1.22 |
| N11G | 0.938 |
| E10C | 0.0243 |
| N11C | 1.06 |
| N11Y | 0.253 |
| S1R | 0.958 |
| T3L | -0.122 |
| L7A | 0.586 |
| E10T | -0.32 |
| V9Q | 0.849 |

Set 3 — method: protein binding microarray; form: double-stranded DNA, one strand shown; medium: in vitro; tested at: not given; baseline: not given; reading: higher = stronger binding
Target: Histone acetyltransferase KAT6A, winged helix 2, GST fusion (KAT6A, Homo sapiens, UniProt Q92794, residues 85-181)
Setting: 8-mer, flanks averaged, mean of 2 arrays, mostly near background
Residues (chain): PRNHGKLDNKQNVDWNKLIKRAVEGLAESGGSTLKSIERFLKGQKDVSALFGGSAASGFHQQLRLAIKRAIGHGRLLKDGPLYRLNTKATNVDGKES
| Sequence | E-score |
| --- | --- |
| CATTGTGC | -0.0834 |
| CCTACTCA | -0.0359 |
| AAGACGCT | -0.159 |
| GCACTTCC | -0.218 |
| AGTCTCAC | 0.0103 |
| GCAGGAGA | 0.128 |
| CGATACGC | -0.0704 |
| CCCTGGCA | 0.0412 |
| AAGAGTCC | -0.0769 |
| GAATGCCC | -0.0825 |
| AAGTGCAG | -0.0796 |
| CGCTAGTA | 0.122 |
| CCGAAGCG | 0.0834 |
| AGCTGGAA | -0.0869 |
| AACGACGC | -0.129 |
| AGGAAAAC | -0.006 |
| ACTCCGTG | 0.147 |
| AGGCAGTG | 0.0636 |
| CCAGCAAC | -0.0187 |

Other studies, line by line
| Molecule | target | assay | system | conditions | how to read | measurement | result |
| --- | --- | --- | --- | --- | --- | --- | --- |
| PhoQ, residues 284 288 289 292 302 303 TLSLKA | PhoP, residues 12 14 15 18 19 NMSSL (Escherichia coli, UniProt P23836) | Sort-seq, item: YFP reporter | E. coli | PhoQ-PhoP variant library, with: 10 µM Mg2+ | baseline: high Mg2+ state, higher = stronger signaling | fold induction | 0.869 |

A few entries again (other studies, line by line):
| Molecule | target | assay | system | conditions | how to read | measurement | result |
| --- | --- | --- | --- | --- | --- | --- | --- |
| PhoQ, residues 284 288 289 292 302 303 TLSLKA | PhoP, residues 12 14 15 18 19 NMSSL (Escherichia coli, UniProt P23836) | Sort-seq, item: YFP reporter | E. coli | PhoQ-PhoP variant library, with: 10 µM Mg2+ | baseline: high Mg2+ state, higher = stronger signaling | fold induction | 0.869 |
